Results gathered from unrelated publications.
Numbered parts are unrelated; each lists some results of a single study.

Set 1
Target: Centromere-binding protein 1, full length, His-tagged (CBF1, Saccharomyces cerevisiae, UniProt P17106, residues 1-351)
Chain of UniProt P17106 (whole entry, looked up): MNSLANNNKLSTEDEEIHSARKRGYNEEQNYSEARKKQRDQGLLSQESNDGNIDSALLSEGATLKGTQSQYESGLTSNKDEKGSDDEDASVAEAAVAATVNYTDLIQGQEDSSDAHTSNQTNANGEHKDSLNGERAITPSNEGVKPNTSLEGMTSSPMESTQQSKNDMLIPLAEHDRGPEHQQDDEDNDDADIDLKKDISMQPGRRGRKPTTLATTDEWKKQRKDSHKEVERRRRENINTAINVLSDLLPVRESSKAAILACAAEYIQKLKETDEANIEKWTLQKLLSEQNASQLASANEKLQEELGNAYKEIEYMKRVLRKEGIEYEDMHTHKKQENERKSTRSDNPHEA
Method: competition protein-binding microarray
Form: double-stranded DNA, one strand shown
Medium: in vitro
Concentration: 2 µM
Setting: whole 60-bp probe, lowest competitor level
Together with: Pho4 competitor, 0.05 µM
Reading: higher = stronger binding
Measurement: fluorescence intensity
CTAACGAAGGTTTGTCACATTACTTACAAGCCAAGTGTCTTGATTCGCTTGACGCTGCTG: 118 a.u.
CTTCTGTAAATTTTTCACGTGTGCTGACGCGCCCCGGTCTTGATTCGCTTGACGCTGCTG: 671 a.u.
CATACCCAACCTTGCCAAGTGGGTGAAGATATTTGTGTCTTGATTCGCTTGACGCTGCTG: 64 a.u.
AGGGTGTTGATGGTGCTCGTGTTGAATACATTTGTGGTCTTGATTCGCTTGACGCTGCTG: 99 a.u.
TGCAAGCTTTAAAGCACCGTGGTGATTCTCGTAATGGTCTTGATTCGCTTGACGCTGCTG: 92.1 a.u.
TAGCCTTAAATCCTGAACGTGGAGGCGATTATTTCAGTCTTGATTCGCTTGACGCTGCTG: 68.3 a.u.
CGGGGTTAAGTTTTTCACGTGTCGTGCGATCAGCAGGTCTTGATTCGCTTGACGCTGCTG: 709 a.u.
CTTTCCCGATCTTGCGGAGTGGGTGTAGCACATTTGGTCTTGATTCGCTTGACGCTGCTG: 68 a.u.
GCGCCGGGCGCTGGCCACGTGCAGGTAGGAGCGCGGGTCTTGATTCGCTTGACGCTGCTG: 935 a.u.
GGACATAACATCGGACTTGTGACGGACGAATCTTTGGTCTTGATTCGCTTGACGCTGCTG: 80.3 a.u.
AGAGGTTCCTCTCGCCATGAGGTGAGTCAGCCACTGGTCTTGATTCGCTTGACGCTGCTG: 60.3 a.u.
AAAGCGGTAATTTGGAGTGTGGGTGCAGATATCTATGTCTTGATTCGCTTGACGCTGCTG: 67 a.u.
TCTTTCTTTCACCATCACGTCTTGGTCTGTAACAAGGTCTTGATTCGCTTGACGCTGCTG: 83.3 a.u.
AAAGCGGTAATTTGTGAGGTGGGTGCAGATATCTATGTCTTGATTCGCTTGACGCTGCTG: 67.8 a.u.
AAATTACTAAGTTTTCACGTGATATACCCCGTATGAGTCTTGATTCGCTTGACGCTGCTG: 4390 a.u.
TGATGACCAAGTTGCCACGTGTCCTCTAGTGGCAGGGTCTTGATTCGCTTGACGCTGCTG: 1350 a.u.
TCCTGAATCAATAAGAAGGTGATGGGGTAGTTCGTCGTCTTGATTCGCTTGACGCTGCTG: 75.9 a.u.
AGATTTAGTCTATCCCACATGACAGGCAACAGCTCGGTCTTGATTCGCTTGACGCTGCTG: 182 a.u.
TTTACGCGCGGTGTTTTCGTGGCCGTACCGCATTGGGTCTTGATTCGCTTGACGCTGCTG: 69.7 a.u.
CTTCTGTAAATTTGTCACCTGACTTGACGCGCCCCGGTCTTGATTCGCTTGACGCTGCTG: 1600 a.u.
TGCGCAACAACTTGCAGTGTGGGTGTATGTCTAGAAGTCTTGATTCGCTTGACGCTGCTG: 67.2 a.u.
GTTGAAGTTACCCGTCACGTCAAAGTTTTCACCGGAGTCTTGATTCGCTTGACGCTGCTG: 83.3 a.u.
CTAACGAAGGTTTTTCACGTGACCTACAAGCCAAGTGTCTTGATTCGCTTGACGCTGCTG: 8670 a.u.
CTAACGAAGGTTTGGTGTGTGGGTGACAAGCCAAGTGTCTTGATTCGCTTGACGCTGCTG: 74.4 a.u.
TCTAGTGATACCCATCACGTGCCAGTGATACTTGCGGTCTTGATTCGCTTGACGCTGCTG: 6440 a.u.

Set 2
Target: RNA binding protein fox-1 homolog 2, RRM domain, GST-SBP tag (RBFOX2, Homo sapiens, UniProt O43251-10, residues 100-194)
Method: RNA Bind-n-Seq
Form: RNA
Medium: in vitro
Concentration: 365 nM
Setting: natural RNA segment, single round, ends assumed
Reference: no-protein control
Reading: higher = stronger binding
Measurement: RBNS enrichment (R)
Residues (chain): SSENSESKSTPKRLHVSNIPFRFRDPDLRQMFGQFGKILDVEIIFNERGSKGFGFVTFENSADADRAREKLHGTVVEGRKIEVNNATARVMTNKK
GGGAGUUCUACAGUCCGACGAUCCCUGCUUCCUAUCUCUGGAGGAGCUUCCCCACGCGGGAGAGCAAUGGCAGAGGAUCCACACAUCCUGAACAGCUGCUUUAUGAGACACCUUUACUUUAUCUUGGCUUAAGUGGAAUUCUCGGGUGCCAA: 0.889
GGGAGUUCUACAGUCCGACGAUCACGCACGCUUUUCAUAAUUAACUGGUGCUUUGAAACCUUUCUUAUGGAAGAAAAAUCUCAACCAAAGUUAUGCUCUUCCUGACAAGCUGACCCUUGAGUUAAUUUUAGCAUGGAAUUCUCGGGUGCCAA: 27.8
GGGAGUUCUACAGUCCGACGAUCACAUUCUUGUCUCCUGCUUUAGAAUGCUAGUGUGUAUCUAUCAUGUAUGCAAUACUUUCCCCCUUUUUGCUUUGCUAACCAAAGAGCAUAUAUUUUACUGUCAGUUGUCUUGGAAUUCUCGGGUGCCAA: 1.26
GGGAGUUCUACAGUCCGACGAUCAAAGGGGAUGCCCAGUGGUUUCCCUUUGCUUCCCAACCUAAAAUUUCAAGUUUAAUAAAAUAGCAAUUAGCAGAAGUGACCAAAUUGGGAGAUAAUUAUCAGUCAUGAGGUGGAAUUCUCGGGUGCCAA: 0.291
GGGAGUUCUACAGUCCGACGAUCUUUUUUAUAAGCAAAAUUUUGUAUGUUAUUGUAUAGUAUUUAUUUGAUCUUAUUUACUUUAUGCUACCUCUCCCACACUGGUUUUAUUUGUAAUUUGCAUUUAUAUACUCUGGAAUUCUCGGGUGCCAA: 1.02
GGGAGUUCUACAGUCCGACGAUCAGGGAGCCCUCAGGUCUAUAGGAAAGGCCCCUCUUAAGACAGAAACGGUUUAACAGCAAGGGUACAAAGGCUGUAGUUUGAGGCCAGAGCAAUUAGCGCUUGUCAGCUUAUGGAAUUCUCGGGUGCCAA: 0.524
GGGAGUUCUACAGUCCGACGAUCGGGCCGGCGCUAGGAUUUGCACUAAUGUUCCUCUCCCCGCGGGUGGGGGCGGGGAAAUUCAUAUCCCCUGUUCGUCUCAUGCGCGUCCUCCGUCCCCAAUCUAAAAAGCAUGGAAUUCUCGGGUGCCAA: 2.07
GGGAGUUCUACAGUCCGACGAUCUACCUGCUGAGGGCGCUGGCUCUGCAGAUCAGAACAACGGAGGAUAGCUUUGUGCCUGGACCCAGAGAGUGUGGGACUCCCCGCUUCAUCCCCACCGUCCCACUCCACAGUGGAAUUCUCGGGUGCCAA: 1.3
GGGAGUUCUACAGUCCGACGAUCUCCACCUGUGUUGCUUUUGUAACUUGAUAUUUAUGCAGGGUUUUGUAGUUUUUAUUAUGUAGUGACUUUUCAGAAUAAAAGCAGCUGAUGUGACUGACUGCAUCCGACUCUGGAAUUCUCGGGUGCCAA: 1.05
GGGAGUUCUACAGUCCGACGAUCCUACCUUUGCUGGCUUGGCUCCUGCUCCCAGGCCAGGGACCUCGGUCUGUCUACUACACACUCUGGUUUCUCCCUGCACUGUCUUUUUACUGUUAGCCAAACAUUUUGCCUGGAAUUCUCGGGUGCCAA: 3.09
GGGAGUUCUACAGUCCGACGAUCUUGUGACACUGGCACUAAGCAAUGUGUGCUCUGCCCAGCACACCUGGACAUGUUCUCUCGGCUGGCUUUCUGUUCCCCGCCUGCCUCCAGGAGGCCAGGGUGGUGGUGCUUGGAAUUCUCGGGUGCCAA: 0.618
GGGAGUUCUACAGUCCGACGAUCCACUUCCCUCUGUCCUAGUUCUCUUUGUCCAAUCAGAUGGCAAGGGCAGUGCGUGGAAAGGCCGGGGAGGUGCAGAAACCAGAGCCCAGGGCAAUGGUGUCUGUCCAGCCUGGAAUUCUCGGGUGCCAA: 0.231

Set 3
Target: Sal-like protein 4, full length isoform A (SALL4, Homo sapiens, UniProt Q9UJQ4, residues 1-1053)
Chain of UniProt Q9UJQ4 (whole entry, looked up): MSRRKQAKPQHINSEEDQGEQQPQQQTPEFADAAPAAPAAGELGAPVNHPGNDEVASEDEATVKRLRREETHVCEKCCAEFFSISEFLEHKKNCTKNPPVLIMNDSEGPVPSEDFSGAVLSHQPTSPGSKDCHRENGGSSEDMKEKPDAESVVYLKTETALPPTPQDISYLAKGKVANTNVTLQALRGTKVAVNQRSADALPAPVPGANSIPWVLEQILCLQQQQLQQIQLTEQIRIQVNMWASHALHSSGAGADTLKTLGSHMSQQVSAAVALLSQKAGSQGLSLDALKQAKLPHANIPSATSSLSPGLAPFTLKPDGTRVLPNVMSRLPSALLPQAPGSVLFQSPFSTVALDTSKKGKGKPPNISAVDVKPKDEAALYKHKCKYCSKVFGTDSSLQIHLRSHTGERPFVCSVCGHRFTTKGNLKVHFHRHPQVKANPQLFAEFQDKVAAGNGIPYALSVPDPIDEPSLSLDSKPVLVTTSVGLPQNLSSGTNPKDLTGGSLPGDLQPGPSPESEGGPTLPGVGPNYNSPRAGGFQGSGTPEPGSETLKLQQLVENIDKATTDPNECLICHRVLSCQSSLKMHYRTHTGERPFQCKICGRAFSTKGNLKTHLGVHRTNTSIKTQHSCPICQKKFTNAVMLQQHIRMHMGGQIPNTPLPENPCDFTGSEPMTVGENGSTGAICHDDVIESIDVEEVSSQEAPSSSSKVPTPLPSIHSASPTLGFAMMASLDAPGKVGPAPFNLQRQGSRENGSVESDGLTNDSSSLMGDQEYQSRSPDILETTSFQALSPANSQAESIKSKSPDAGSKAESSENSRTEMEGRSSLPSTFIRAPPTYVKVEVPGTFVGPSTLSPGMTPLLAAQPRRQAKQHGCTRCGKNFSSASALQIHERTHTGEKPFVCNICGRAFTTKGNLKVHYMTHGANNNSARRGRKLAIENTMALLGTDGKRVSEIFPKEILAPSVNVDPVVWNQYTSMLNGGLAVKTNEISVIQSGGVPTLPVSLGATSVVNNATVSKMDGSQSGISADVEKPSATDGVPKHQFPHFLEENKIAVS
Method: universal PBM
Form: double-stranded DNA, one strand shown
Medium: in vitro
Concentration: 600 nM
Setting: 8-mer, flanks averaged, mean of replicates
Reading: higher = stronger binding
Measurement: E-score
CACCGCAC: -0.236
AGCTGTAC: -0.196
ACGTGTCA: 0.0474
ATGGTCGC: 0.0293
AGCTAGTG: -0.165
AGCTTTCG: -0.139
AAGGCAAT: 0.161
CTATGGAA: 0.196
CAGAATAA: 0.22
AGCGTAAA: 0.0909
GACTCATC: -0.082
AGTACGAA: 0.147
CGTGACAA: 0.021
ATTGGACA: 0.125
ATCTCACC: 0.0657
GACTGTTA: 0.153
CGCCGGTC: -0.397

Set 4
Target: Interferon regulatory factor 5, full length, phosphomimetic (IRF5, Homo sapiens, UniProt Q13568-2, residues 1-514, K96S/S451D/S453D/S456D/S462D)
Method: protein-binding microarray
Form: double-stranded DNA, one strand shown
Medium: in vitro
Concentration: 250 nM
Setting: 60-bp whole probe
Together with: salmon DNA 0.4 mg/ml
Reference: random background probes
Reading: higher = stronger binding
Measurement: log fluorescence
All sequences stand within: GCCTAGCAC … GTCTTGATTCGCTTGACGCTGCTG
TTAGGGCTGCTTTTCCTTTAGTGCTAG: -0.0249 z-score
TTAGGTTTACTACTGCTTTAGTGCTAG: 0.123 z-score
GACGGACTGGGCACTGGGGACGTGCTA: -0.68 z-score
GACGGTTCCTTTTTCCTGACGTGCTAG: 0.407 z-score
GACCGTTTCGGTTTCGGGACGTGCTAG: 10.6 z-score
GACGGTTTCGGGCTGGGGACGTGCTAG: 4.96 z-score
GACGGTAACGACTTTCGGGACGTGCTA: 5.75 z-score
TCAGGTATCCTACTGCTTTAGTGCTAG: -0.084 z-score
TTAGGTATCGGGTTTCAGTTAGTGCTA: 5.02 z-score
GACGGTTTGGGTATCGGGACGTGCTAG: 0.692 z-score
GACGGTCTCGGTCTCGAGACGTGCTAG: 0.202 z-score
TCAATTACCTCATCTTTCACTGTGCTA: 1.72 z-score
TCAATTCTAGCCTATAGAACTGTGCTA: 0.192 z-score
CAAGTTACGGAATTTCCCTCTGTGCTA: 0.564 z-score
TGGTATTTTTTTCTAATTGAGTGCTAG: 0.758 z-score
CCTAGTTTCATTCCTGATCTGTGCTAG: 4.79 z-score
TTAGAACTGAGTTTTGATTAGTGCTAG: 0.797 z-score
TTAGTTTCCAGTTTCGATTAGTGCTAG: 9.77 z-score
GACGAACTGGGGTATCCAGACGTGCTA: -0.776 z-score
GACGGTTTCCTTAACCTGACGTGCTAG: 0.364 z-score
TCAGATTTCAGTCTCGATTAGTGCTAG: 2.49 z-score
GACGATTTCATTATCGAGACGTGCTAG: 3.23 z-score
TCAGTTCTGGGAAATATTACTGTGCTA: 0.257 z-score
GACGGTCTCCTACTGCTGAGGTGCTAG: -0.277 z-score
GACGATCTCCTTCTCCTGACGTGCTAG: -0.00189 z-score

Some of these lines once more (set 3):
ATTGGACA: 0.125
ATCTCACC: 0.0657
CAGAATAA: 0.22
AAGGCAAT: 0.161
AGTACGAA: 0.147
CGTGACAA: 0.021
CACCGCAC: -0.236
AGCTAGTG: -0.165
GACTCATC: -0.082
GACTGTTA: 0.153
AGCGTAAA: 0.0909
CGCCGGTC: -0.397
